Assay results of several laboratories.
Parts stem from different laboratories: compare values within a part only. Changes are numbered by the printed parent chain.

Block 1 — method: DHFR PCA, deep sequencing; matrix: yeast; together with: (+)-ABA 710 µM; baseline: wild-type fitted maximum; reading: higher = stronger binding
Target: ABI1, truncated, D143A, DHFR fusion (Arabidopsis thaliana)
Setting: methotrexate growth selection, single substitutions
Starting sequence: PYL1, truncated, DHFR fusion (Arabidopsis thaliana); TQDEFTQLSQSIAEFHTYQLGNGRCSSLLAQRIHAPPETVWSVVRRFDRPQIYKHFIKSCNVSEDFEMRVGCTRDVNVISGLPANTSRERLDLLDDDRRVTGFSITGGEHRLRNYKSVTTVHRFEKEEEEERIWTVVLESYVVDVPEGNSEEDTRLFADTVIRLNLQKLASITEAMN
Change	relative binding score
N61C	110%
T6R	110%
I105L	67.9%
K116A	92.7%
L169I	60.2%
G108P	24.7%
R46Q	105%
V70I	101%
I12R	91.9%
R24F	89.2%
G71Q	62.4%
Y115T	13%
S63I	105%
E127M	106%
Q167M	96.3%
G21P	102%
H122N	92.9%
G102M	89.3%
D75A	101%
D92H	80.7%
S80L	21.3%
R45Q	72.4%

Block 2 — method: RNA Bind-n-Seq; form: RNA; matrix: in vitro; tested at: 1 µM; setting: whole 134-nt RNA, ends assumed; together with: 150 mM KCl; baseline: input library; reading: higher = stronger binding
Target: Ras GTPase-activating protein-binding protein 1, C-terminal RGG region (G3BP1, Homo sapiens, UniProt Q13283)
UniProt Q13283, sequence (whole entry, looked up): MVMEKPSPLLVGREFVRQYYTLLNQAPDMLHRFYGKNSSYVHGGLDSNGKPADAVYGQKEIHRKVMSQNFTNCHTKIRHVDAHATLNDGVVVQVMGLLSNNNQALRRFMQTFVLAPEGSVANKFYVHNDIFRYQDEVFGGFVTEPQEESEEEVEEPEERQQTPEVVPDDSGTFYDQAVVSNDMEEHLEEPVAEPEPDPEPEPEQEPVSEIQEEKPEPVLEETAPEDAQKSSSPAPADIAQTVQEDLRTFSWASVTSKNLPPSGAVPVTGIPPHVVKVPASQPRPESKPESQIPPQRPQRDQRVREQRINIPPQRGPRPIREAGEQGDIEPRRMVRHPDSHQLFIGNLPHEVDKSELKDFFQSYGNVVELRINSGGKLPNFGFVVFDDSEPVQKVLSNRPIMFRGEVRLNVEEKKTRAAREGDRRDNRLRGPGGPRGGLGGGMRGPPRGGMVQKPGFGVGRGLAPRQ
Oligonucleotide	log2 enrichment
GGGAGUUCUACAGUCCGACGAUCGUCCUGUGCUACACAUCGUAUGUACCGAAUCGGUUUUUUUGGUUUUUGGAAAAAAAGGAAAGUAUUAUGUUACGCCGUUCGGAUCUGCACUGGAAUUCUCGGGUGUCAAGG	-1.65
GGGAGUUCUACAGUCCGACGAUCGUCCUGUGCUACACAUCGUAUGUACCGAAUCGGGGAAAAAGGAAAAAGGAAAAAGGGGAAAGUAUUAUGUUACGCCGUUCGGAUCUGCACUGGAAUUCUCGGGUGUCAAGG	-1.18
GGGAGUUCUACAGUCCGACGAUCUCAAGUCCUGUGCUACACAUCGUAUGUACCGAAUCGGGUUUGGGUUUGGGUGGGAAAGUAUUAUGUUACGCCGUUCGGAUCUGCACUUCCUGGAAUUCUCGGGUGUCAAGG	1.9
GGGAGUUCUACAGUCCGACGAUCUGGCCCUGGUGGCACGCGGGGAGGAAGAGGUGGCCUCAUGGAUCGUGGUGGUCCCGGUGGAAUGUUCAGAGGUGGCCGUGGUGGAGACAGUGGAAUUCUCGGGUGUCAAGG	1.9
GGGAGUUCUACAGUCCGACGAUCCUCAAGUCCUGUGCUACACAUCGUAUGUACCGAAUCGGGGUGGGGUGGUGGGGAAAGUAUUAUGUUACGCCGUUCGGAUCUGCACUUCCAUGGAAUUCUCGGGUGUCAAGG	0.755
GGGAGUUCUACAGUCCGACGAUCGCAGGAAGUAAAAACAAAUGGAAAUGCUUCGGAUAGUGGCAGGGGUGGGGGUUGCUAAGGAAAGGGUGGGAAAAGAGUGGGUAAAGAGUUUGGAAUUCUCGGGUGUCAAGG	2.33
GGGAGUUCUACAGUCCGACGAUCAGUCCUGUGCUACACAUCGUAUGUACCGAAUCGGGGAAAGGGGAGGGGUUUUUGGGGAAAGUAUUAUGUUACGCCGUUCGGAUCUGCACUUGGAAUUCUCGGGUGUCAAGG	2.03
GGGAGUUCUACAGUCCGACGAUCCACAGACAACACGCACCCACACAGACACAGAGGGAAGGGGUUGGGAUGGGGACAGGGAAAACAGCAGGGCGGGGUAGGACCCCAGCCCCUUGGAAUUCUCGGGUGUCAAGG	-0.326
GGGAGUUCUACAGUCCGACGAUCUGGGAGGUGGAUUUUGUUUAUUUUUUUAGCUCAUUUCCAGGGGUGGGAAUUUUUUUUUAAUAUGUGUCAUGAAUAAAGGUGUUUUUGAAAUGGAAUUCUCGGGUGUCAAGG	2.98

Block 3 — method: Sort-seq; item: YFP reporter; matrix: E. coli; setting: PhoQ-PhoP variant library; together with: 10 µM Mg2+; baseline: high Mg2+ state; reading: higher = stronger signaling
Substance: PhoQ, residues 284 288 289 292 302 303 TLMATV
target	fold induction
PhoP, residues 12 14 15 18 19 VGHWL (Escherichia coli, UniProt P23836)	1.39
PhoP, residues 12 14 15 18 19 LHHYF (Escherichia coli, UniProt P23836)	13.5
PhoP, residues 12 14 15 18 19 TPWTL (Escherichia coli, UniProt P23836)	26.5
PhoP, residues 12 14 15 18 19 NFFVT (Escherichia coli, UniProt P23836)	2.57

Block 4 — method: protein-binding microarray; form: double-stranded DNA, one strand shown; matrix: in vitro; tested at: not given; reading: higher = stronger binding
Target: Protein C-ets-1 (ETS1, Homo sapiens, UniProt P14921, residues 1-441, Y397A, full length assumed)
Setting: k-mer, scored over probes, only values ≥0.25
Target sequence (chain): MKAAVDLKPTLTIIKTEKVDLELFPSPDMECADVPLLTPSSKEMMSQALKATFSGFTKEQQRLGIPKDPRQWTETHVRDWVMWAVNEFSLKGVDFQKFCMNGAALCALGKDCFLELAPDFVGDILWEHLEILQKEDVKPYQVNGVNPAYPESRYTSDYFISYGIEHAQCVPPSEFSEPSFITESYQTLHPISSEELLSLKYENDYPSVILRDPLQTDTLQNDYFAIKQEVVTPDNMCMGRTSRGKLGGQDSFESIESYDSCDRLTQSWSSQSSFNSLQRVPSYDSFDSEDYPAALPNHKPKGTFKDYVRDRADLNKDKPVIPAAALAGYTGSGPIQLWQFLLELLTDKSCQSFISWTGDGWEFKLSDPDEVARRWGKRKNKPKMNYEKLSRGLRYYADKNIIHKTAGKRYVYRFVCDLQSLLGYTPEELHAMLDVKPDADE
Oligonucleotide	E-score
GTCAACGA	0.284
ACCCGACA	0.259
GTCGGATA	0.327
CCGACATA	0.263
CATTTCCC	0.258
AACGGATA	0.267
GCCCACCC	0.299
AACGTTGT	0.321
CAGACAAA	0.296
ATACAAAT	0.277
CGCACAAG	0.324
TCACCGGA	0.295
GTGACAAC	0.315
AATCGACA	0.313
GCGTTTCC	0.262

Block 5 — method: RNA Bind-n-Seq; form: RNA; matrix: in vitro; tested at: 365 nM; baseline: no-protein control; reading: higher = stronger binding
Target: RNA binding protein fox-1 homolog 2, RRM domain, GST-SBP tag (RBFOX2, Homo sapiens, UniProt O43251-10, residues 100-194)
Setting: natural RNA segment, single round, ends assumed
Oligonucleotide	RBNS enrichment (R)
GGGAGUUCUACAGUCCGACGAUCUUAUGUUCUUCUAAGUAAUGCCUAUGACCCAAUGCAACUAGGCAGUAAGUAUCCACGACUCCAACCAGUAUUAUAGACCUUGGGGAUGUUUCAGAAUGUGGAAGUUACUAUGGAAUUCUCGGGUGCCAA	0.467
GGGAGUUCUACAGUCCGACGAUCGGGACUGAGGUUCUUCAGAGAAAGAGUGUGAGCUGAUGACACAGUGGUUUUACACCCACCCCCUGGGCAGGGAGUUUGCACGUAGUUGUGAGCUGUGAGUGGUUAGUGCAUGGAAUUCUCGGGUGCCAA	4.03
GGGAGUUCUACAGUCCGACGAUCUAUAACUAGGAUUUCAUUUUGUGUGUAUAGCUUAUGUAAUAAAUUUUAAAGGUGAAAACUCUCUUAAUUUGUUUCUAUUUCUUAAGUAUUUUAAAACAUAGCAAAGAUAAUGGAAUUCUCGGGUGCCAA	0.778
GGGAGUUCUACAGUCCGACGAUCUCACCGCUCAUCUGUGCCCGCGGCUACAAGAGGACAGCAAGGGUUUUCUUCAGAGUCUAUUUUUUCAGCAACAAGGACCCCAGUCUUCCUGCUGCUGCCAGGAAGAGCAGUGGAAUUCUCGGGUGCCAA	1.76
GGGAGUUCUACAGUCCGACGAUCCACCCGGCCUCUUCGCCUUUCCCACCCUCCUGCCCCACACUCCCCGCCUUAGAGCCUCGUCCCUCCCUCACUGAAGGACCUGAGCUGGCCAGGCCCUGAGAGUCUGGUCUUGGAAUUCUCGGGUGCCAA	0.649
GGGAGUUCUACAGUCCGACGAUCUCUCCAGAAUAAACGUCCCAGCGUUGCCCUGACCUGGCUGGAGGGCGCAUUGCUGUCUGUGCCUGUGUUGUGCACAGCCACAGUUAGUAACUGGGGAAGCUUCUGUACUAUGGAAUUCUCGGGUGCCAA	0.458
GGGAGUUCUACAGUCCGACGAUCCCUUCCCGGCCCAACCUGAGGGAUGUGGAUUUGGGACUGUCUGGGGGCCCCUCCUGCAGCGAGGAUGGGAGGGGGUGCUGAGCUGUGAAUCCCCUGGGCAGGGGGCGACAUGGAAUUCUCGGGUGCCAA	0.696
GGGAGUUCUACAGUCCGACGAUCUUUGGAGGUCAAGCAUGUAGAAGGAAAAGGCUGUAGUCAUGAAUAUAGAACUGUCUGCUCUCCACCUUUUCCUCACUCUACAUUUAGUCAUCACACUGAACAGGAUGUGGUGGAAUUCUCGGGUGCCAA	1.54

Some of these lines once more (block 4):
Oligonucleotide	E-score
CGCACAAG	0.324
GTCAACGA	0.284
TCACCGGA	0.295
ACCCGACA	0.259
GCGTTTCC	0.262
CATTTCCC	0.258
